Measurements collected from several papers.
Compare with care: the assays were run in different laboratories. Values joined by “and” are separate records of one study, mostly repeats; a detail may differ. In brackets after ≈: the same amount, converted by molar mass.

Cc1cc(OC(C)C)ccc1C(=O)C(C)(C)NC(=O)c1sccc1C gave an EC50 of 0.26 µg/mL (≈ 0.723 µM) (Pyrenophora graminea; mycelial growth; PSA medium; 20 °C).
For CC1=C(Cn2cc(CO)nn2)C(=O)c2ccccc2C1=O, the killing was 39.4% (Schistosoma mansoni; adult worms; 10 µM, 24 h).
CN1CCN(S(=O)(=O)c2ccc(-c3ccc4nncc(Nc5cnccn5)c4c3)cc2)CC1 — result for “phenotypic severity score”: 0 (Schistosoma mansoni; adult worms; 10 µM, 5 h; direction not given).
For Nc1nc(-c2ccccc2)nc2[nH]nc(Nc3ccc(C(F)(F)F)cc3)c12, the clinical score was 0.3 (coxsackievirus B3; 31-1-93, NMRI mice, CVB3 chronic myocarditis; oral, 100 mg/kg twice daily, day 19, dosed days 3 to 10, score scale 0 to 7; direction not given).
COc1ccc(Nc2cnnc3ccc(-c4cnc(N5CCCN(C)CC5)nc4)cc23)cc1Cl: “phenotypic severity score” 1 (Schistosoma mansoni; adult worms; 10 µM, 1 h; direction not given).
For CN(C)c1ccc(O)c2c1C[C@H]1C[C@H]3[C@H](N(C)C)C(O)=C(C(N)=O)C(=O)[C@@]3(O)C(O)=C1C2=O, “median adult worm burden” read 1 worms per mouse (Brugia malayi; SCID mouse; x28d dosing, 6 weeks post-treatment).
CC1=C(Cc2cn(CCN3CCN(C(=O)OC(C)(C)C)CC3)nn2)C(=O)c2ccccc2C1=O gave a killing of 41.6% (Schistosoma mansoni; adult worms; 10 µM, 48 h).
For C[C@H]1c2cccc(O)c2C(=O)C2=C(O)[C@]3(O)C(=O)C(C(N)=O)=C(O)[C@@H](N(C)C)[C@@H]3[C@@H](O)[C@@H]21, “median microfilaria count” read 0 microfilariae per mouse (Brugia malayi; SCID mouse, peritoneal cavity; dose not given, 6 weeks post-treatment, dosing x42d).
CN1CCN(c2ncc(-c3ccc4c(Nc5ncccn5)cnnc4c3)cn2)CC1 — result for “phenotypic severity score”: 0 (Schistosoma mansoni; adult worms; 10 µM, 5 h; direction not given).
CC1=C(Cn2ccnc2[N+](=O)[O-])C(=O)c2ccccc2C1=O has a killing of 44.4% (Schistosoma mansoni; adult worms; 10 µM, 72 h).
COc1ccc(Nc2cnnc3ccc(-c4cnc(N5CCN(C)CC5)nc4)cc23)cc1Cl: “phenotypic severity score” 0 (Schistosoma mansoni; adult worms; 10 µM, 24 h; direction not given).
With CC1=C(Cn2cc(CN3CCOCC3)nn2)C(=O)c2ccccc2C1=O the killing was 54.6% (Schistosoma mansoni; adult worms; 25 µM, 72 h).
For COc1ccc(Nc2cnnc3cc(-c4cnc(N5CCN(C)CC5)nc4)ccc23)cc1, “phenotypic severity score” read 0 (Schistosoma mansoni; adult worms; 10 µM, 5 h; direction not given).
The killing of CC1=C(Cn2cc(C(C)(C)O)nn2)C(=O)c2ccccc2C1=O is reported as 40.8% (Schistosoma mansoni; adult worms; 10 µM, 72 h).
CC(C)n1ncc2c(C(=O)NCC3(C)CNC3)cc(C3CC3)nc21 gave a cell protection of 0.273% and -0.41% and 0% (Enterovirus D68; cytopathic effect; RD, US/MO/14-18949; 50 nM).

A few entries again:
With CC1=C(Cn2cc(CN3CCOCC3)nn2)C(=O)c2ccccc2C1=O the killing was 54.6% (Schistosoma mansoni; adult worms; 25 µM, 72 h).
For COc1ccc(Nc2cnnc3cc(-c4cnc(N5CCN(C)CC5)nc4)ccc23)cc1, “phenotypic severity score” read 0 (Schistosoma mansoni; adult worms; 10 µM, 5 h; direction not given).
